Measured values pooled from the literature.
Each numbered part is a random draw from the data of one study; scales do not carry over between parts.
Chain of UniProt Q9Y261 (142-269, looked up): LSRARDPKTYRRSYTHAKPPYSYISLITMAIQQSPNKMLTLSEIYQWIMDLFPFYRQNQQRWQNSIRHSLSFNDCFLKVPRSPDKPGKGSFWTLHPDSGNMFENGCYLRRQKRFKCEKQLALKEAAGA
Chain of UniProt P60842 (whole entry, looked up): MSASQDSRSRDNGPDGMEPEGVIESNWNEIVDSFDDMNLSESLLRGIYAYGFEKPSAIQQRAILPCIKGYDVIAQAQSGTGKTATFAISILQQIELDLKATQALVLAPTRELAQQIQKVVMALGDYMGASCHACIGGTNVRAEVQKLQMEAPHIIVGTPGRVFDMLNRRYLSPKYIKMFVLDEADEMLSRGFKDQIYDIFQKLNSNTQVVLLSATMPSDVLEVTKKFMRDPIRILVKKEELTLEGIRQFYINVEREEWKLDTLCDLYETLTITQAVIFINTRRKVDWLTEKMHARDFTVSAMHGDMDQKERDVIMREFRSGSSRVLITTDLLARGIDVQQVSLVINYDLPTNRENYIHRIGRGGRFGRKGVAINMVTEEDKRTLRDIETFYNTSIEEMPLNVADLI

Series 1
Target: Ras GTPase-activating protein-binding protein 1, RRM domain (G3BP1, Homo sapiens, UniProt Q13283)
Chain of UniProt Q13283 (whole entry, looked up): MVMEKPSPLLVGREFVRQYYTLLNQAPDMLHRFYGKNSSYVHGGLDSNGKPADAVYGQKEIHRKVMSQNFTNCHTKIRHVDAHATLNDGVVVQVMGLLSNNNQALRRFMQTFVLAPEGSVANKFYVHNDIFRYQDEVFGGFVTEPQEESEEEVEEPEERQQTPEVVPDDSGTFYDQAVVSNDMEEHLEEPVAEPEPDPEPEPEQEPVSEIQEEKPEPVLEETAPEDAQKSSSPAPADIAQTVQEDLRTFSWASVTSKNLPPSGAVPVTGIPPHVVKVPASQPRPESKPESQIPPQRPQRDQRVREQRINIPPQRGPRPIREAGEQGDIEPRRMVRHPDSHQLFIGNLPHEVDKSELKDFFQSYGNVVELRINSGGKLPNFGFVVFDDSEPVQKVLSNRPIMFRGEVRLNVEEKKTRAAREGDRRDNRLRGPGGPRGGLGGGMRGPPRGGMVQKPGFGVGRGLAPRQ
Method: RNA Bind-n-Seq
Molecule type: RNA
Medium: in vitro
Tested at: 1 µM
Setting: whole 134-nt RNA, ends assumed
Added: 150 mM KCl
Relative to: input library
Reading: higher = stronger binding
All sequences stand within: GGGAGUUCUACAGUCCGACGAUC … UGGAAUUCUCGGGUGUCAAGG
For `AGUCCUGUGCUACACAUCGUAUGUACCGAAUCGGGAAAAAGGGAAAAAAAGGGAGGGAAAGUAUUAUGUUACGCCGUUCGGAUCUGCACU`, the log2 enrichment was 0.755.
With `UUGCAUUUCGAACGCGUUCUAAGAUGCCCCUGAAAGAUGUUCCCCUGGGCCAAUUAGAGGCAGAGCUCCAAGCUCCAGACAUCACUCCAG` the log2 enrichment was 0.0649.
The log2 enrichment of `CCUCAAGUCCUGUGCUACACAUCGUAUGUACCGAAUCGGGGUGGGGUGGUGGAAAGUAUUAUGUUACGCCGUUCGGAUCUGCACUUCCAG` is reported as -0.224.
For `UGGCCCUGGUGGCAUGCGGGGAGGAAGAGGUGGCCUCAUGGAUCGUGGUGGUCCCGGUGGGAUGUUCAGAGGUGGCCGUGGUGGAGACAG`, the log2 enrichment was 1.09.
With `GUCCUGUGCUACACAUCGUAUGUACCGAAUCAAACCCCCAAAUUUUUAAACCCCCAAAAAAGUAUUAUGUUACGCCGUUCGGAUCUGCAC` the log2 enrichment was -0.392.
For `CUGUGCUACACAUCGUAUGUACCGAAUCGGGAAAAAAAGGGGAAAAAAAGGGGAAAAAAAGGAAAGUAUUAUGUUACGCCGUUCGGAUCU`, the log2 enrichment was 0.137.
For `AGUCCUGUGCUACACAUCGUAUGUACCGAAUCGGGAGGGAAAAAAAGGGAAAAAGGGAAAGUAUUAUGUUACGCCGUUCGGAUCUGCACU`, the log2 enrichment was 0.584.
The log2 enrichment of `UGGGAGGUGGAUUUUGUUUAUUUUUUUAGCUCAUUUCCACGGGUGGGAAUUUUUUUUUAAUAUGUGUCAUGAAUAAAGUUGUUUUUGAAA` is reported as 1.87.

Series 2
Target: Sal-like protein 4, full length isoform A (SALL4, Homo sapiens, UniProt Q9UJQ4, residues 1-1053)
Chain of UniProt Q9UJQ4 (whole entry, looked up): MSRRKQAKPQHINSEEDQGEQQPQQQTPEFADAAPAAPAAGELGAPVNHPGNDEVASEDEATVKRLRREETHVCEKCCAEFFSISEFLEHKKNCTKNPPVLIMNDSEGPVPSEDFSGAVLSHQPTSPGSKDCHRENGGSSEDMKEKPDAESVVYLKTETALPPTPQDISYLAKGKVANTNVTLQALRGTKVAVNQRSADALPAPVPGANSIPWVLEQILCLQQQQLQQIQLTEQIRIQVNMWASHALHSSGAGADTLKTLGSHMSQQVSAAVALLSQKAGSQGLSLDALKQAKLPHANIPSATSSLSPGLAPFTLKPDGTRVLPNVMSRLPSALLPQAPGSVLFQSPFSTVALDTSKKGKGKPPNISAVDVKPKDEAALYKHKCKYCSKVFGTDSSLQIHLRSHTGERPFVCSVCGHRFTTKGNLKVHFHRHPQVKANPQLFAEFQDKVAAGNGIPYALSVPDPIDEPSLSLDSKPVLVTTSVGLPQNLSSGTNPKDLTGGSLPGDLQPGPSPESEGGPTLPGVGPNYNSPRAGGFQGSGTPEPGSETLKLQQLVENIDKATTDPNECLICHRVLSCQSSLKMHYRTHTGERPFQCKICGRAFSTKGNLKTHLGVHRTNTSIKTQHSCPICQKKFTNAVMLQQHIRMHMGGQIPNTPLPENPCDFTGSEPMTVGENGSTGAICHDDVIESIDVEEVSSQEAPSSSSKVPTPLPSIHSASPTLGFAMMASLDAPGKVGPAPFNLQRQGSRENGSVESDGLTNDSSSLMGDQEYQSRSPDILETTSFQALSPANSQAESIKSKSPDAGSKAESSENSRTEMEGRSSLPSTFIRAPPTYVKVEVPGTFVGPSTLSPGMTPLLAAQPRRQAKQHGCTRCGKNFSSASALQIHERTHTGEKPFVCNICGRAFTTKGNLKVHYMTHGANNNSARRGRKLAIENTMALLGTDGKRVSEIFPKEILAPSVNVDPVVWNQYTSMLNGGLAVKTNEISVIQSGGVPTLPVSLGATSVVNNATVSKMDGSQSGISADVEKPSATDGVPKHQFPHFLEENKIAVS
Method: universal PBM
Molecule type: double-stranded DNA, one strand shown
Medium: in vitro
Tested at: 600 nM
Setting: 8-mer, flanks averaged, mean of replicates
Reading: higher = stronger binding
`CCGCTTTC` has an E-score of -0.184.
The E-score of `ATTTGCTG` is reported as 0.223.
`AGCGGTCA` gave an E-score of -0.108.
For `GATCTAGC`, the E-score was -0.217.
`GAAGGGCA` gave an E-score of -0.161.
`GTCAATCA` has an E-score of 0.0871.
For `GGTCAAGA`, the E-score was -0.044.
`CGGACTCA` has an E-score of -0.221.

Series 3
Cell line: HEK-293T/ACE2
Tested at: 10 µM
Time: 16 h
Relative to: vehicle
CCC(=O)OCC(=O)[C@@]1(OC(=O)CC)[C@@H](C)C[C@H]2[C@@H]3CCC4=CC(=O)C=C[C@]4(C)[C@@]3(F)[C@@H](O)C[C@@]21C has a viability of 102%.
OC(c1cc(C(F)(F)F)nc2c(C(F)(F)F)cccc12)C1CCCCN1 (stereo not shown) gave a viability of 94.8%.
N#C/C(=C1/SC[C@@H](c2ccc(Cl)cc2Cl)S1)n1ccnc1 has a viability of 101%.

Series 4
Target: Replicase polyprotein 1ab, polymerase (rep, Severe acute respiratory syndrome coronavirus 2, UniProt P0DTD1)
Observed: enzyme activity
Mode: inhibitor
Tested at: 20 µM
COc1ccc(C(=O)CCC(=O)O)c2ccccc12 gave an inhibition of 3.78%.
For CCCCCCOC(=O)CCC(=O)CN, the inhibition was -3.24%.
The inhibition of CCn1c(-c2nonc2N)nc2cncc(C(=O)N3CC[C@H](N)C3)c21 is reported as 5.01%.
For CC(C)[C@H]1c2ccc(F)cc2CC[C@@]1(CCN(C)CCCc1nc2ccccc2[nH]1)OC(=O)C1CC1, the inhibition was 0.28%.
Cc1cc(C)cc(C(=O)NOCCCCCC(=O)NO)c1 has an inhibition of 17.3%.
CO/N=C(\C(=O)N[C@@H]1C(=O)N2C(C(=O)O)=C(Cn3ccc(=N)n3CCO)CS[C@H]12)c1csc(N)n1 gave an inhibition of 0.89%.
With O=c1[nH]c(=O)n([C@H]2C[C@H](O)[C@@H](CO)O2)cc1/C=C/Br the inhibition was -3.71%.
For Cc1ccc([N+](=O)[O-])cc1S(=O)(=O)N(C)/N=C/c1cnc2ccc(Br)cn12, the inhibition was -7.88%.
The inhibition of Nc1nc(=O)n([C@@H]2O[C@H](CO)[C@@H](O)[C@@H]2F)cc1I is reported as 2.4%.
With CCCCC(=O)OCC(=O)[C@]1(O)Cc2c(O)c3c(c(O)c2[C@@H](O[C@H]2C[C@H](NC(=O)C(F)(F)F)[C@H](O)[C@H](C)O2)C1)C(=O)c1c(OC)cccc1C3=O the inhibition was 5.79%.
With O=c1c2ccccc2[se]n1-c1ccccc1 the inhibition was 22.9%.
With CC(C)(C)CC(=O)Nc1c(F)cc(C(=O)N=c2sccn2COP(=O)(O)O)cc1F the inhibition was 17.2%.
The inhibition of COC(=O)C1=C(C)NC(C)=C(C(=O)OCCSc2ccccc2)C1C (stereo not shown) is reported as -6.28%.
O=c1ccn([C@@H]2O[C@H](COP(=O)(O)OP(=O)(O)OP(=O)(O)O)[C@@H](O)[C@H]2O)c(=O)[nH]1 gave an inhibition of -8.02%.
For CC(C)(O)C(=O)N1CCN(c2ccc(C(F)(F)F)c(C3=C(c4c[nH]c5ccccc45)C(=O)NC3=O)c2)CC1, the inhibition was -0.35%.
The inhibition of C=C[C@H]1CN2CC[C@H]1C[C@@H]2[C@@H](O)c1ccnc2ccccc12 is reported as -3.31%.
The inhibition of Fc1ccc(CN2CCC(Nc3ccc(C(F)(F)F)nn3)CC2)cc1F is reported as 0.92%.
CCN(CC)C(=O)/C(C#N)=C/c1cc(O)c(O)c([N+](=O)[O-])c1 gave an inhibition of 3.57%.
For COc1ncnc(NS(=O)(=O)c2ccc(N)cc2)c1OC, the inhibition was 4.11%.
The inhibition of c1ccc(-c2cnn3cc(-c4ccc(OCCN5CCOCC5)cc4)cnc23)cc1 is reported as 1.21%.
Cc1cc(C)cc(C(=O)OC2C[C@H]3CC[C@@H](C2)N3C)c1 (stereo partly shown) gave an inhibition of -0.88%.
For CN1CCN(c2c(F)cc3c(=O)c(C(=O)O)cn(CCF)c3c2F)CC1, the inhibition was 1.75%.
The inhibition of Cn1c(=O)c2[nH]c(Br)nc2n(C)c1=O is reported as -8.36%.
CC(=O)[C@H]1CC[C@H]2[C@@H]3CC[C@@H]4C[C@H](O)CC[C@]4(C)[C@H]3CC[C@]12C has an inhibition of -15.3%.
CCCCN1CCC(CNC(=O)c2c3n(c4ccccc24)CCCO3)CC1 gave an inhibition of -12.9%.

Series 5
Target: Replicase polyprotein 1ab, main protease (rep, Severe acute respiratory syndrome coronavirus 2, UniProt P0DTD1)
Observed: enzyme activity
Mode: inhibitor
Tested at: 20 µM
Setting: primary screen
The inhibition of Cc1cc2nc3ccc(N(C)C)cc3[s+]c2cc1N is reported as 26.5%.
The inhibition of CCCc1cc(C(=N)S)ccn1 is reported as 38.6%.
With CC(Cc1ccc(O)c(O)c1)(NN)C(=O)O (stereo not shown) the inhibition was 90.7%.

Mixed results
Medium: in vitro
Reading: higher = stronger binding
DDX3X helicase core: ATP-dependent RNA helicase DDX3X, helicase core (DDX3X, Homo sapiens, UniProt O00571, residues 132-607)
Chain of UniProt O00571 (132-607, looked up): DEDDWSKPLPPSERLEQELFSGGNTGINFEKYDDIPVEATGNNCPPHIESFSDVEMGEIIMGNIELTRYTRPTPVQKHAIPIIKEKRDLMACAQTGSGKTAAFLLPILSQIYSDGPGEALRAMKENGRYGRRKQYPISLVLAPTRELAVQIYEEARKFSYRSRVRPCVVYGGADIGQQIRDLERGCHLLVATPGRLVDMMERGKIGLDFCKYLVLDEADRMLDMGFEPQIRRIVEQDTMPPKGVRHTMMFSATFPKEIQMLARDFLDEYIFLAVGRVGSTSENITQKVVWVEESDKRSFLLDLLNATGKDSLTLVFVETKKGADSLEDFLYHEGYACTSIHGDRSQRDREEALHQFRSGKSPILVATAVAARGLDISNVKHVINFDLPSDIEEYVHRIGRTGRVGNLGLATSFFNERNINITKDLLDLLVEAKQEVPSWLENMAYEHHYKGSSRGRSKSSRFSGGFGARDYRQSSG
POU6F1 POU and homeodomain: POU domain, class 6, transcription factor 1, POU and homeodomain (POU6F1, Homo sapiens, UniProt Q14863, residues 311-611)
Chain of UniProt Q14863 (311-611, looked up): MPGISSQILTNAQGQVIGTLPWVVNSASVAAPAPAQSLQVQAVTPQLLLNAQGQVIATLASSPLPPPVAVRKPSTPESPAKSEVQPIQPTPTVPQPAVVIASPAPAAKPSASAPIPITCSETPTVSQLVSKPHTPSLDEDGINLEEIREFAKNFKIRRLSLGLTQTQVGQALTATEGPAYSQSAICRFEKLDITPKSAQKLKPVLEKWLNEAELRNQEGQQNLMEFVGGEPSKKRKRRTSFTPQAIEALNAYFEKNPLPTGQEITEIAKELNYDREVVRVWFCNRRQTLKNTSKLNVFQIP
With `GCAC` the 4-mer enrichment was 0.922 fold (DDX3X helicase core; RNA Bind-n-Seq; RNA; 90 pmol, 4-mer, random 30-nt RNA, single round, added: 3 µM DMDA-PatA, 2 mM ADP, 2 mM phosphate; relative to: input library).
For `GAGGCCACAATTAGGTGCCTCCTGGCACCTAATTGTGGCCTCACACTCTT`, the median fluorescence was 489 a.u. (POU6F1 POU and homeodomain; protein-binding microarray; hairpin DNA; not given, whole hairpin DNA, median over replicate spots; relative to: not given).
With `CCUG` the 4-mer enrichment was 0.851 fold (DDX3X helicase core; RNA Bind-n-Seq; RNA; 90 pmol, 4-mer, random 30-nt RNA, single round, added: 3 µM DMDA-PatA, 2 mM ADP, 2 mM phosphate; relative to: input library).
For `GAGGCCATGTAGCCAACGCCTCCTGGCGTTGGCTACATGGCCTCACACTC`, the median fluorescence was 3280 a.u. (Hepatocyte nuclear factor 3-beta, forkhead domain (FOXA2, Homo sapiens, UniProt Q9Y261, residues 142-269); protein-binding microarray; hairpin DNA; not given, whole hairpin DNA, median over replicate spots; relative to: not given).
`CUUC` gave a 4-mer enrichment of 0.841 fold (DDX3X helicase core; RNA Bind-n-Seq; RNA; 90 pmol, 4-mer, random 30-nt RNA, single round, added: 3 µM iPr-DMDA-PatA, 2 mM ADP, 2 mM phosphate; relative to: input library).
With `GAGGCCATAATGAGGGGCCTCCTGGCCCCTCATTATGGCCTCACACTCTT (5mC at 27)` the median fluorescence was 1830 a.u. (POU6F1 POU and homeodomain; protein-binding microarray; hairpin DNA; not given, whole hairpin DNA, median over replicate spots; relative to: not given).
`GGUA` — result for “4-mer enrichment Z-score”: 1.04 (Eukaryotic initiation factor 4A-I (EIF4A1, Homo sapiens, UniProt P60842, residues 1-406, full length assumed); RNA Bind-n-Seq; RNA; 15 pmol, 4-mer, random 30-nt RNA, single round, added: 3 µM RocA, 2 mM AMP-PNP; relative to: mean of 4-mers).
With `GAGGCCTGTTGCGATTGGCCTCCTGGCCAATCGCAACAGGCCTCACACTC` the median fluorescence was 1660 a.u. (Runt-related transcription factor 1, full length (RUNX1, Homo sapiens, UniProt Q01196-8, residues 1-480); protein-binding microarray; hairpin DNA; not given, whole hairpin DNA, median over replicate spots; relative to: not given).

For quick reference, copied from above (series 4):
With CC(C)(C)CC(=O)Nc1c(F)cc(C(=O)N=c2sccn2COP(=O)(O)O)cc1F the inhibition was 17.2%.
The inhibition of COC(=O)C1=C(C)NC(C)=C(C(=O)OCCSc2ccccc2)C1C (stereo not shown) is reported as -6.28%.
O=c1ccn([C@@H]2O[C@H](COP(=O)(O)OP(=O)(O)OP(=O)(O)O)[C@@H](O)[C@H]2O)c(=O)[nH]1 gave an inhibition of -8.02%.
For CC(C)(O)C(=O)N1CCN(c2ccc(C(F)(F)F)c(C3=C(c4c[nH]c5ccccc45)C(=O)NC3=O)c2)CC1, the inhibition was -0.35%.
The inhibition of C=C[C@H]1CN2CC[C@H]1C[C@@H]2[C@@H](O)c1ccnc2ccccc12 is reported as -3.31%.
The inhibition of Fc1ccc(CN2CCC(Nc3ccc(C(F)(F)F)nn3)CC2)cc1F is reported as 0.92%.
CCN(CC)C(=O)/C(C#N)=C/c1cc(O)c(O)c([N+](=O)[O-])c1 gave an inhibition of 3.57%.
For COc1ncnc(NS(=O)(=O)c2ccc(N)cc2)c1OC, the inhibition was 4.11%.
The inhibition of c1ccc(-c2cnn3cc(-c4ccc(OCCN5CCOCC5)cc4)cnc23)cc1 is reported as 1.21%.
